Results from different studies.
Numbered parts are unrelated; each lists some results of a single study.

Series 1
Target: Histone acetyltransferase KAT6A, winged helix 2, GST fusion (KAT6A, Homo sapiens, UniProt Q92794, residues 85-181)
Method: protein binding microarray
Form: double-stranded DNA, one strand shown
Medium: in vitro
Tested at: not given
Setting: 8-mer, flanks averaged, mean of 2 arrays, mostly near background
Relative to: not given
Reading: higher = stronger binding
Residues (chain): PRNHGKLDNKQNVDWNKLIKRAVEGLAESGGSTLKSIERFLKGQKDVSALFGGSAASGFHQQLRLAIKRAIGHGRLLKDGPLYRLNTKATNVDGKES
For `GCCTTTAA`, the E-score was 0.0452.
`ATACCATC` gave an E-score of -0.0325.
`CCTGTAGC` has an E-score of -0.206.
With `ATCTAAAA` the E-score was -0.0289.
The E-score of `CTTTGATA` is reported as 0.123.
The E-score of `AAAACTCA` is reported as 0.152.
With `CGTGGATA` the E-score was -0.206.
`AGTATATC` has an E-score of -0.0428.
With `ATACTGTA` the E-score was -0.174.
For `CTGAGATC`, the E-score was -0.0513.
With `CCTTTCTA` the E-score was -0.0832.
`ATCGGACC` has an E-score of 0.0834.
`CCGGGCTC` has an E-score of 0.141.
For `CTACTATC`, the E-score was 0.061.
For `TAACCAAA`, the E-score was -0.013.
With `TATCGGGA` the E-score was -0.109.
With `AATTAGAT` the E-score was 0.0739.
With `GAGCTACA` the E-score was -0.0502.
`ACTGCTCC` gave an E-score of 0.0181.

Series 2
Target: RING finger protein unkempt homolog, zinc fingers 1-6, GST-SBP tag (UNK, Homo sapiens, UniProt Q9C0B0, residues 30-357)
Method: RNA Bind-n-Seq
Form: RNA
Medium: in vitro
Tested at: not given
Setting: RNA with constant flanks, human and mouse sites, ends assumed
Relative to: input RNA pool
Reading: higher = stronger binding
Constant ends, left off below: GGGAGUUCUACAGUCCGACGAUC … CAACAGAGGAUUGAGCAUCA
Construct (chain): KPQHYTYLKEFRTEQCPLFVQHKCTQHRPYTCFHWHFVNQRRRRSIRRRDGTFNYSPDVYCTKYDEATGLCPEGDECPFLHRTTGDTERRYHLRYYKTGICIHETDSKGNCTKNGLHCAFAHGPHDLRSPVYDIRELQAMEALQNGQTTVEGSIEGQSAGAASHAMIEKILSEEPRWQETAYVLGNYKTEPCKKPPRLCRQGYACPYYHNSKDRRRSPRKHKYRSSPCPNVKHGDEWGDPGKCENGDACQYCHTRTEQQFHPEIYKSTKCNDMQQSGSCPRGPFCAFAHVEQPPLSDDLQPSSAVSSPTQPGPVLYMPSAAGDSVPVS
With `UUUCUCUAUGGAUAUCUUAAUCAAGAUAACUGUACAUGGAGCAAAGAAGUUUGUCAUCCUGAUAUUGGUGGCAAGAUCAUAAUGUGUCCUCAGUGUGAUAGGCUUUGUCCAUUCUGGAAA` the bound/input enrichment was 0.0852 ratio.
`GGAUUUGGAGAUGCAGUGGAUAAUAGUAAUUGCUGGCAGCCUGUUAUCGACUACAUUGAUAGUAAAUUUGAGGACUACCUAAAUGCAGAAUCACGAGUGAACAGACGUCAGAUGCCUGAU` gave a bound/input enrichment of 0.412 ratio.
With `UUUUUAGAGUGUGGGAAAACCAAUCUGAGAAGAACAACUUACCUUGUCCUUGAUGAAGCUGAUAGGAUGCUUGAUAUGGGAUUUGAACCCCAGAUAAGGAAAAUUGUGGAUCAAAUAAGA` the bound/input enrichment was 0.245 ratio.
The bound/input enrichment of `ACUGCUCCAUCGAUCCCUUCACAUUUGUCUCCUGGUUUACGAGAUGUGGCUCUUCGUUGUUUAGAACUUCAACCUCAGGACAGACCUCCAUCAAGAGAGCUACUGAAGCAUCCAGUCUUU` is reported as 0.155 ratio.
The bound/input enrichment of `AGAAAUGGGCCGCUCCAAUUCUAGAUCACAUUCUUCAAGAUCCAAGUCUAGAUCACAGUCUAGUUCUAGAUCAAGAUCAAGAUCACAUUCUAGAAAGAAGAGAUACAGUUCUAGGUCUCG` is reported as 0.179 ratio.
The bound/input enrichment of `ACAGUUUAGAUAUUCUUUUUAUUUUUUUUCUUUUCCCUCAAUCCUUUUUUAUUUUUAAAAAUAGUUCUUUUGUAAUGUGGUGUUCAAAACGGAAUUGAAAACUGGCACCCCAUCUCUUUG` is reported as 208 ratio.
For `UCCCAGACAAAUGAAAGCUACUUUCCUUUUGACGAUGAACUUACACAAGAUAGCAUUGUGGAAGAGCUGGUACUUAUGGAGCAGCAGAUGUCAAUGAAUAAUUCACAUUCUUAUGGUAAC`, the bound/input enrichment was 0.0801 ratio.
`GAUGCUGCUUUGGAGGCCACAGAGAAUGAACCACUUAACAAGGAAACAGAAGAAAUGUGUGUGAUGCUUGUCUCUAAUUUGCCUAAUAAAGGAUAUUCUGUAGAAGAAGUUUAUGACUUA` has a bound/input enrichment of 0.512 ratio.
With `GGAAUUUGUAAGAAGAACCAUGAUCAGCAUCUUCUUUUACUGUGUGACACCUGUAAACUGCAUUAUCAUCUCGGCUGCCUUGAUCCUCCUCUUACAAGGAUGCCGAGAAAGACGAAAAAC` the bound/input enrichment was 0.228 ratio.
The bound/input enrichment of `AGAGCUGGUCUUCUUGACACCUUUUCCAAUAUCAGCUUUGCAGAAGGAAACUUAAAUUUCAGUUCAGGGCAUGACCUUCAUGACCUUGCAGAACUUCUUCACUUUCCAGGUUAAGUAAAG` is reported as 0.18 ratio.
The bound/input enrichment of `GCCCAUGAGAAGCUAGACAAUAAGAAGGAGUGUUUAGAAGACGUCACUGCUGUGUGUAUAUUAGAAGGGUUUCAAAAUGAGCAGAGCAUGCUGUUAGCUGAUAAAGUUCUUAAACUUCUU` is reported as 0.571 ratio.

Series 3
Target: Transcription factor SOX-2, HMG box (SOX2, Homo sapiens, UniProt P48431, residues 19-118)
Sequence of UniProt P48431 (19-118, looked up): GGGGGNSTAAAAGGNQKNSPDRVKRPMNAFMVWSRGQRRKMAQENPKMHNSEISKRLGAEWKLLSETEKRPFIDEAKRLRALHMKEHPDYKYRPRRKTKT
Method: protein-binding microarray
Form: double-stranded DNA, one strand shown
Medium: in vitro
Tested at: not given
Setting: k-mer, scored over probes, only values ≥0.25
Reading: higher = stronger binding
The E-score of `CAAAACA` is reported as 0.283.
The E-score of `TATTTAA` is reported as 0.289.
`ATAATTC` has an E-score of 0.367.
For `TAATGTA`, the E-score was 0.296.
The E-score of `CAGACAA` is reported as 0.331.
`ATTGATA` has an E-score of 0.355.
`CAAAGAA` gave an E-score of 0.29.
For `ATACTAT`, the E-score was 0.268.
`ACCATTG` has an E-score of 0.323.
The E-score of `CTGACAA` is reported as 0.283.
With `ATGAATC` the E-score was 0.336.
`AATTCAA` gave an E-score of 0.46.
`CAATTAA` gave an E-score of 0.346.
For `GAATTGA`, the E-score was 0.346.

Single results of other studies
With `PhoQ, residues 284 288 289 292 302 303 AGHLVA` the fold induction was 0.26 (PhoP, residues 12 14 15 18 19 LHATL (Escherichia coli, UniProt P23836); Sort-seq, item: YFP reporter; E. coli; PhoQ-PhoP variant library, added: 10 µM Mg2+; relative to: high Mg2+ state, higher = stronger signaling).

Some of these lines once more (series 1):
`AGTATATC` has an E-score of -0.0428.
With `ATACTGTA` the E-score was -0.174.
For `CTGAGATC`, the E-score was -0.0513.
With `CCTTTCTA` the E-score was -0.0832.
`ATCGGACC` has an E-score of 0.0834.
`CCGGGCTC` has an E-score of 0.141.
